Assay results gathered from unrelated publications.
Parts stem from different laboratories: compare values within a part only.

Set 1
Target: Sal-like protein 4, full length isoform A (SALL4, Homo sapiens, UniProt Q9UJQ4, residues 1-1053)
Chain of UniProt Q9UJQ4 (whole entry, looked up): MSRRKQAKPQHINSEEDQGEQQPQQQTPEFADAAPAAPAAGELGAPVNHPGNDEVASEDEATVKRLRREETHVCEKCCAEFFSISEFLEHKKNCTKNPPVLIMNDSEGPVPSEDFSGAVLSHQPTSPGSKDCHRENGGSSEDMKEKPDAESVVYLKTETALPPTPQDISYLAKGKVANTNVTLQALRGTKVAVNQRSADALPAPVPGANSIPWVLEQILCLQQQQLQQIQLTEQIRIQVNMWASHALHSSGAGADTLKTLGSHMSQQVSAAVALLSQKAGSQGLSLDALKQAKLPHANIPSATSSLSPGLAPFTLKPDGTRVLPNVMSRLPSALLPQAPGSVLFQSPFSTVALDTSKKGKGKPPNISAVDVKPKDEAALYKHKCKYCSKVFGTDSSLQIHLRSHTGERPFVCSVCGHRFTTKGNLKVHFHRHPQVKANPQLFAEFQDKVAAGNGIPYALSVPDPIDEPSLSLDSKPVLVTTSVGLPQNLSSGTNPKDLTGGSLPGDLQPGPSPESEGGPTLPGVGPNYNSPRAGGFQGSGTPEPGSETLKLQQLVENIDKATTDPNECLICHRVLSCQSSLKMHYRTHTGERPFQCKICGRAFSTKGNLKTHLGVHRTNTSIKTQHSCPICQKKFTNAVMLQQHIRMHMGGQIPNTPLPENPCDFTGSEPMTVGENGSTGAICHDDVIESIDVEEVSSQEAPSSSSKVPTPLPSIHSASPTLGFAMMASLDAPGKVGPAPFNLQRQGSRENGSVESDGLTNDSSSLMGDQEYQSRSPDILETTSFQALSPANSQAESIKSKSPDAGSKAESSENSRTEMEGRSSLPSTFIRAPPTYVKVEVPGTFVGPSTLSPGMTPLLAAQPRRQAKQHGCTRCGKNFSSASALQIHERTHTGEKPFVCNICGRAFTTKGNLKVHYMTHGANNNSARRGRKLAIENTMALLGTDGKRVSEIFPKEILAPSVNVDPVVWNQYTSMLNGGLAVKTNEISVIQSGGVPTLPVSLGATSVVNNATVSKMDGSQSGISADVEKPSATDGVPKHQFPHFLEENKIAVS
Method: universal PBM
Molecule type: double-stranded DNA, one strand shown
Sample: in vitro
Tested at: 600 nM
Setting: 8-mer, flanks averaged, mean of replicates
Direction: higher = stronger binding
Quantity: E-score
AGAATCGG: -0.141
AGCACTAG: -0.0695
CGATATCA: 0.187
CATTAACC: 0.164
ATTAGGAG: 0.224
AGCTTTAC: 0.0507
CTCGGTTC: -0.193
CTCGGAAG: -0.181
CATGGGCC: -0.256

Set 2
Target: Histone acetyltransferase KAT6A, winged helix 2, GST fusion (KAT6A, Homo sapiens, UniProt Q92794, residues 85-181)
Method: protein binding microarray
Molecule type: double-stranded DNA, one strand shown
Sample: in vitro
Tested at: not given
Setting: 8-mer, flanks averaged, mean of 2 arrays, mostly near background
Reference: not given
Direction: higher = stronger binding
Quantity: E-score
Construct (chain): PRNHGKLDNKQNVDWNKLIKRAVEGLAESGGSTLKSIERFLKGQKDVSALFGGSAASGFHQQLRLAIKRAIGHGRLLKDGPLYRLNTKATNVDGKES
CCAATACA: 0.0495
GAGGTTGC: 0.0474
ACGCCAGC: 0.0805
ATGGTGCC: -0.018
AAGTGAGA: 0.0766
TAGTAGAA: -0.0866
ACCTGGAT: -0.000845
AGACTGAG: 0.0453

Set 3
Target: Prothrombin, mature alpha-thrombin (F2, Homo sapiens, UniProt P00734)
Method: aptamer microarray, sandwich
Molecule type: DNA with 2'F-ANA
Sample: in vitro
Tested at: 200 nM
Setting: whole 15-mer aptamer, many near background
With: Cy3 exosite-II aptamer, 400 nM
Direction: higher = stronger binding
Quantity: mean fluorescence intensity
Oligonucleotide: GGTTGGTGTGGTTGG
2'F-ANA at 2 3 6 9 11 13 14: 338 a.u.
2'F-ANA at 1 3 9 10 11 12 14: 61.4 a.u.
2'F-ANA at 4 5 6 11 14: 43.1 a.u.
2'F-ANA at 5 7 8 9 11: 83.4 a.u.
2'F-ANA at 1 2 3 5 6 11: 54.8 a.u.
2'F-ANA at 1 3 8 13: 311 a.u.
2'F-ANA at 2 3 4 5 6 8 9 11 14 15: 52.9 a.u.
2'F-ANA at 3 4 7 9 11 12: 824 a.u.
2'F-ANA at 1 7 10 11 12 13 15: 112 a.u.
2'F-ANA at 2 3 4 5 6 12 14: 49.3 a.u.

Further values, each from its own experiment
PhoQ, residues 284 288 289 292 302 303 SSTMSV — fold induction (PhoP, residues 12 14 15 18 19 NQCAL (Escherichia coli, UniProt P23836); Sort-seq, refers to: YFP reporter; E. coli; PhoQ-PhoP variant library, with: 10 µM Mg2+; reference: high Mg2+ state, higher = stronger signaling): 18.7
